Measured values collected from several papers.
Every numbered part comes from another study and shows a few of its results, in no order.
UniProt O95819, sequence (whole entry, looked up): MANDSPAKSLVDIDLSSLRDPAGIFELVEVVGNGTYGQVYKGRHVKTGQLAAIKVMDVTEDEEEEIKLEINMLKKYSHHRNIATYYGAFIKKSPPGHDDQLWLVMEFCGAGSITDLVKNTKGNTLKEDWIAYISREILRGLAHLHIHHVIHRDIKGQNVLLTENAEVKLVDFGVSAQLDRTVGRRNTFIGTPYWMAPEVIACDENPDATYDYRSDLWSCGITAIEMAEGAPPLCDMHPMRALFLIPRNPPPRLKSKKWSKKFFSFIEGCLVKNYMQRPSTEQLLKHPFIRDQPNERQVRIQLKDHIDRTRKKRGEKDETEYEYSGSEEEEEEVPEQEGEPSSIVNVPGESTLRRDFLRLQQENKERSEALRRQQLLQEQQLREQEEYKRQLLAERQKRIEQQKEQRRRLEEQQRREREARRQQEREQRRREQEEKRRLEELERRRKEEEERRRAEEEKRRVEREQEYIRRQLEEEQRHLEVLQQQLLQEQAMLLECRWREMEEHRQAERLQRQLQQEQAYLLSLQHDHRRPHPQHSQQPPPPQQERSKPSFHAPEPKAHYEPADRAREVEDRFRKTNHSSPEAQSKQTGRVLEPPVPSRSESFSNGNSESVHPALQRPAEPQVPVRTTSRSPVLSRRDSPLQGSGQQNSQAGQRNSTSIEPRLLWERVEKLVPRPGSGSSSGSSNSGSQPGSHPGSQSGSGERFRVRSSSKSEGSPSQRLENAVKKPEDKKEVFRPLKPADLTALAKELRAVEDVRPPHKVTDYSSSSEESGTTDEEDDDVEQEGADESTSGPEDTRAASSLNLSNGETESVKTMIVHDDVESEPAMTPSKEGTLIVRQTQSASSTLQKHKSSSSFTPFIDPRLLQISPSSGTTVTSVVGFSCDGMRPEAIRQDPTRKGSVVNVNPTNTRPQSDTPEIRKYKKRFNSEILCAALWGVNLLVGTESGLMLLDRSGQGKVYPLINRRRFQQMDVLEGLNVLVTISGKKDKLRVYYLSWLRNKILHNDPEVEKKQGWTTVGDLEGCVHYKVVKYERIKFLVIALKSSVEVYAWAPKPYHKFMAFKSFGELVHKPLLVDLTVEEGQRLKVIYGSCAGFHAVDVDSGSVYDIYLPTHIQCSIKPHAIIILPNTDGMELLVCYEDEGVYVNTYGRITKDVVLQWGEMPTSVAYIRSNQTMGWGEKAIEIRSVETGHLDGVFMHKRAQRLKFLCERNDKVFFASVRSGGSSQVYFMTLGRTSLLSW
UniProt P53779, sequence (whole entry, looked up): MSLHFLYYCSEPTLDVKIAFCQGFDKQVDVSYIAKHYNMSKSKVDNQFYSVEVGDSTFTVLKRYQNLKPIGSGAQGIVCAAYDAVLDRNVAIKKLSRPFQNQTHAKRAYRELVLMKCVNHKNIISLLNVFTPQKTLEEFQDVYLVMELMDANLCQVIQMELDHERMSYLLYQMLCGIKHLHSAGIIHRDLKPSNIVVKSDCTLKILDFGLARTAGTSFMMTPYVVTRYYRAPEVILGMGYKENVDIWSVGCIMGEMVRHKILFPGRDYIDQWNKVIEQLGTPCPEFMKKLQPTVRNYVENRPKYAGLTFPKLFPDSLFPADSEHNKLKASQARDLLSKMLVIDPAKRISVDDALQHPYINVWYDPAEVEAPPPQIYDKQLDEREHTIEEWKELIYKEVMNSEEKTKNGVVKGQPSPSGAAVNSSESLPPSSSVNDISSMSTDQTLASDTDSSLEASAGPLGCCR
UniProt P11802, sequence (whole entry, looked up): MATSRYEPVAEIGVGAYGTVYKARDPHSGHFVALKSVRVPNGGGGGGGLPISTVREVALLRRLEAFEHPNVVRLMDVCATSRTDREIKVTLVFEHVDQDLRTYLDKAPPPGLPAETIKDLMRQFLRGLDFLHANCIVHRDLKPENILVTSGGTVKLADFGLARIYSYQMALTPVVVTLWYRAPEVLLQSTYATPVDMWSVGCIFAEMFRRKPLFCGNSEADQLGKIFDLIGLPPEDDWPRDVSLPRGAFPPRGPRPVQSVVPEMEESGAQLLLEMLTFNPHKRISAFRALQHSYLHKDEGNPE
UniProt Q8IY84, sequence (whole entry, looked up): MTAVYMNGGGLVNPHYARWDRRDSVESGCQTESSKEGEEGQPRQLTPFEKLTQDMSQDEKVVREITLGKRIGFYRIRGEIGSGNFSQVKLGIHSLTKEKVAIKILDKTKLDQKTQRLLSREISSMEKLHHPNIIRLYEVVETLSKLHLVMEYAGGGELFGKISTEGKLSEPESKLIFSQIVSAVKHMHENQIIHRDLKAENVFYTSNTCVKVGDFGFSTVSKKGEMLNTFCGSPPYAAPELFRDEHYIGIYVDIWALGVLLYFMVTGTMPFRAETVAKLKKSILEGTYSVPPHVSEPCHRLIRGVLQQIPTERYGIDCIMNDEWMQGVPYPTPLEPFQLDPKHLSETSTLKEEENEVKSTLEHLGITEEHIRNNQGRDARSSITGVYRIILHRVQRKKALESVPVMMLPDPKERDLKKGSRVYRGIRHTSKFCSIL
UniProt P54760, sequence (whole entry, looked up): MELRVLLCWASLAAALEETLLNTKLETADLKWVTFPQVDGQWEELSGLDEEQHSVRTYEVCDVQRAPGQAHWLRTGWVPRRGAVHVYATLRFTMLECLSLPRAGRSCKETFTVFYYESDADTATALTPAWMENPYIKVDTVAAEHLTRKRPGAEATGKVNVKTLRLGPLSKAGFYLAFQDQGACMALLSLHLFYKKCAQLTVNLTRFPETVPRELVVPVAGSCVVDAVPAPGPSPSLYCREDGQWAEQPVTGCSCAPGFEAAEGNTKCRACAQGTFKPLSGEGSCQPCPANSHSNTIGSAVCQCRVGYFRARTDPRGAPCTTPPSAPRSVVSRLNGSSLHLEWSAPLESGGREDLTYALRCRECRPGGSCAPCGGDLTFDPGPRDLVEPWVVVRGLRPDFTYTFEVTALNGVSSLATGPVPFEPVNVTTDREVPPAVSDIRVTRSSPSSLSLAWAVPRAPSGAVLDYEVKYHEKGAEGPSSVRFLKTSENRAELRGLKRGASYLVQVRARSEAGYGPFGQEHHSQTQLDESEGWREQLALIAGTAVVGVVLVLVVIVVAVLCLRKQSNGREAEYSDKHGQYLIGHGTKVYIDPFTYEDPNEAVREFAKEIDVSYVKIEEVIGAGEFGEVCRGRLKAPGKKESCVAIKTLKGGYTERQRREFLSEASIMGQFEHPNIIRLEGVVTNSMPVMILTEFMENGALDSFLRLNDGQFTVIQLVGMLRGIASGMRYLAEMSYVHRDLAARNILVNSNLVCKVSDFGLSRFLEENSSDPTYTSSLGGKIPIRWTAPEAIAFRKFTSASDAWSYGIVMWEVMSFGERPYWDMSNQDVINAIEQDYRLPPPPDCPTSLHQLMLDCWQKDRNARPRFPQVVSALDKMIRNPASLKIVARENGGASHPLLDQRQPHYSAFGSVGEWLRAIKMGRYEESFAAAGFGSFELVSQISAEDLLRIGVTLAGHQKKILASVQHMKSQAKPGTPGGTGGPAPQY
UniProt Q7KZI7, sequence (whole entry, looked up): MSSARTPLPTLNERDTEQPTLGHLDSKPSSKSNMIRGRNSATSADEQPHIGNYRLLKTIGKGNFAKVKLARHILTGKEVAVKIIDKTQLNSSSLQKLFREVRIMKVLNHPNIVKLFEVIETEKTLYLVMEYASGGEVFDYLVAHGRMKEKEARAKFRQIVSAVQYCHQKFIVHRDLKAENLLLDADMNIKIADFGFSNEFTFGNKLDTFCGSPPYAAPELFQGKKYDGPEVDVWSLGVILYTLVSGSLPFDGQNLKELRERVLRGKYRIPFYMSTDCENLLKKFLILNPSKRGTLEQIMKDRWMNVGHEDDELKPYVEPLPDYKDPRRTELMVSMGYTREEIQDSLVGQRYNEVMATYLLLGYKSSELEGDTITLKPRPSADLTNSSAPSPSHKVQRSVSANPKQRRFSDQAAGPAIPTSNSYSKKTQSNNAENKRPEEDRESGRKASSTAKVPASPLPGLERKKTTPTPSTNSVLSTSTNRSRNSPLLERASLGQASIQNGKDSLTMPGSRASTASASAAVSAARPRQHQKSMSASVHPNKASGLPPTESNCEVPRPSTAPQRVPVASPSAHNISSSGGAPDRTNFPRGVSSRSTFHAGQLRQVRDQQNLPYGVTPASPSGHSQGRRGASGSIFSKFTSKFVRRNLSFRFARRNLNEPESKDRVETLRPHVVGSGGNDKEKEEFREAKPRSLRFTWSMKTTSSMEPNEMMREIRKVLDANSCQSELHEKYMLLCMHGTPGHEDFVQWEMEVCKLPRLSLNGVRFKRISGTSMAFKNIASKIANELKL
UniProt Q8N5S9, sequence (whole entry, looked up): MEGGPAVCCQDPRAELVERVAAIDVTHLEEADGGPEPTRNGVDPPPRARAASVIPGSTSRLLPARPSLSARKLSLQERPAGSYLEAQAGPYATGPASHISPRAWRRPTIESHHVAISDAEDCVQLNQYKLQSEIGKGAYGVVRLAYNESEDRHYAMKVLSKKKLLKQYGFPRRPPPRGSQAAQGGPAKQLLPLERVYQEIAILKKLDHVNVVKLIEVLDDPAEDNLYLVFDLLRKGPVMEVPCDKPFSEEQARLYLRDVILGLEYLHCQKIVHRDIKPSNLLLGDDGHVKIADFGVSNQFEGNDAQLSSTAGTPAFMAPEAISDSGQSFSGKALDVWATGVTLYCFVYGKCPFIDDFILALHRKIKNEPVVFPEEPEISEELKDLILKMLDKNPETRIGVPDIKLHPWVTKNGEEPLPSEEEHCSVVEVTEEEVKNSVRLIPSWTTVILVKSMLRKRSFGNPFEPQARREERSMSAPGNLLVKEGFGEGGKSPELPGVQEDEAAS

Series 1
Target: RING finger protein unkempt homolog, zinc fingers 1-6, SBP tag (UNK, Homo sapiens, UniProt Q9C0B0, residues 30-357)
UniProt Q9C0B0, sequence (30-357, looked up): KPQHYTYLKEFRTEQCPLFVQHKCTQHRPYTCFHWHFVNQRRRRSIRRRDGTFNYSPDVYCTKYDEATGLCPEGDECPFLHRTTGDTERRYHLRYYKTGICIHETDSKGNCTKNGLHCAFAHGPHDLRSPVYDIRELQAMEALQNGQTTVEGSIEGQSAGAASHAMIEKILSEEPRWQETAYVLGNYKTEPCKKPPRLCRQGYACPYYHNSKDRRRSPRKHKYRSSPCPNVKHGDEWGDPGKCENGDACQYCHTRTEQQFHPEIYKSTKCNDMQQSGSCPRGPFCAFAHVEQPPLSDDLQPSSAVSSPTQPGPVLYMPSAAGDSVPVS
Method: RNA Bind-n-Seq
Molecule type: RNA
Sample: in vitro
Tested at: 100 nM
Notes: RNA with constant flanks, vertebrate orthologous sites, ends assumed
Baseline: input RNA pool
Direction: higher = stronger binding
`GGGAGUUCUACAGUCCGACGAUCAGCAACCCAUGGAUUGAGGACUGGCUUUCCAAAUAUACCAAAUAGAUACGGAACUAACAGUAGAAUUGGACAACCAAGACCAUGAUGUGUUGCAAUUUAACUUAUUUUUAUGAGGAAUAUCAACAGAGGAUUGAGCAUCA` gave a bound/input enrichment of 0.817 ratio.
For `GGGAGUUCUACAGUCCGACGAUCUUUUAUUGAUCAGGUCUGUAAAUGUGUACUAAAAAAAUCAGAGAUUAUUUAUAAGCAAAAUAGUUUAUUUAAAGAGAAUAGUUCUUGUCAGUUUUGUGGUAUGCAUUGAUUCCAUUUGUUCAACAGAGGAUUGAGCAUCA`, the bound/input enrichment was 0.282 ratio.
The bound/input enrichment of `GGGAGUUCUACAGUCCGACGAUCUGUACUACAAAAAAAAAUCAUCCUAGUUUUAAGCUAACUACAGUGAUAACUAGUCUGUGCUAGUGGAAUAAUUUAUUAUUACUUUUUAAAUUACCUGCUCUGUCUGAUACCUGCAACCACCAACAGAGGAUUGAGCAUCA` is reported as 0.859 ratio.
With `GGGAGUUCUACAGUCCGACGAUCAAAGUCCUGGCUGCCGGAACGCCUCAGUGAGGUAAAGUCUCUUGGCGUUUUGACUGGGACCAGCCCAGCCAUUCUCAGCCUCUCGACAUGUAAUUUCAUUUCUUUUACGAAAGCUCGUCUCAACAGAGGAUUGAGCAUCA` the bound/input enrichment was 0.124 ratio.
`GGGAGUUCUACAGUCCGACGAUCUGCCUGUAGGAUGAAGCUCUUACAUCAGGUGUCACGAGUCUGGAGGAAAGAUGGAUUGAGUAGUUGCUCAUAUAAAUUACUCUCAGUGAUUUACAACCCUUUAUAUAUCAACAUCACAGUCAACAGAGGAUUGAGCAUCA` gave a bound/input enrichment of 0.386 ratio.
The bound/input enrichment of `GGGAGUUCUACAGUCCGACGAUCGCCUUAGAAGUGAGCUGACAGGGCAGUUAGGUGGGCUCCCAUCUCAAGGAAAACCCUAAACCGAUUCCUUAACCAGCUAGCUAGACACUGGUGGUUAGCUUUUCAGUUUGUUUUCAUUUUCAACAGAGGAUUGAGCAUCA` is reported as 0.294 ratio.
`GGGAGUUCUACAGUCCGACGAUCUAUUAGUGUCAUACCAGCAUAUUAACCUCUCGUCUGUGCACAGCUUCAAAUGUUACCGUCUAGUUAGGUUUUUAUUUAAAAUAUGAAAAACUGCUUUUCCCAAGACGUUUUUUAAAAAAACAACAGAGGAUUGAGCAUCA` has a bound/input enrichment of 1.11 ratio.
The bound/input enrichment of `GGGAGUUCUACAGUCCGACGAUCGUGACUUUGGGCGUCCGCAUAGUCUUGGUGCACCCUUAGUCCAGGUCUUGUCCCGCAGGUUUAUUUUUCUUUCCCUGUAGACUAAAGGCCGCUGCCGCAAACAUGCUUCGCCAGAUCCUCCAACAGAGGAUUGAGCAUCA` is reported as 0.269 ratio.

Series 2
Structure (SMILES): CNC(=O)Nc1ccc2c(c1)[C@@]1(CC2)OC(=O)N(CC(=O)N(Cc2ccc(F)cc2)[C@@H](C)C(F)(F)F)C1=O
Effect on: cell-free assay
Method: competition with immobilised ligand
Tested at: 1 µM
For MARK3 (Homo sapiens, UniProt P27448): remaining binding read 100%.
It gave 100% for remaining binding (MAP4K4 (Homo sapiens, UniProt O95819)).
PAK3 (Homo sapiens, UniProt O75914) — remaining binding: 91%.
The remaining binding was 100% (MARK2 (Homo sapiens, UniProt Q7KZI7)).
Tyrosine-protein kinase ABL1, non-phosphorylated (ABL1, Homo sapiens, UniProt P00519, Q252H) — remaining binding: 88%.
It gave 97% for remaining binding (BTK (Homo sapiens, UniProt Q06187)).
NIM1K (Homo sapiens, UniProt Q8IY84) — remaining binding: 76%.
EPHB4 (Homo sapiens, UniProt P54760) — remaining binding: 91%.
For Cyclin-dependent kinase 4, with cyclin D1 (CDK4, Homo sapiens, UniProt P11802): remaining binding read 75%.
For CAMKK1 (Homo sapiens, UniProt Q8N5S9): remaining binding read 100%.
MAPK10 (Homo sapiens, UniProt P53779) — remaining binding: 67%.
CDK3 (Homo sapiens, UniProt Q00526) — remaining binding: 100%.

Series 3
Organism: Sarcocystis neurona
Effect on: parasite growth
Tested at: 10 µM
`O=C1CN2Cc3c(ccc(Cl)c3Cl)N=C2N1` has an inhibition of -22.7%.
`CC(=O)OCC(=O)[C@@]1(O)CC[C@H]2[C@@H]3CCC4=CC(=O)CC[C@]4(C)[C@H]3C(=O)C[C@@]21C` has an inhibition of 5.1%.
For `Cc1cn([C@H]2C[C@H](N=[N+]=[N-])[C@@H](CO)O2)c(=O)[nH]c1=O`, the inhibition was -20.5%.

Series 4
Method: PRP chromatography estimate
Sample: 1,9-decadiene/PBS
pH: 7.4
For `CC(C)C[C@@H]1NC(=O)[C@H](C)NC(=O)[C@H](CCC(=O)N2CCCC2)NC(=O)[C@H](CC(C)C)NC(=O)[C@H](C(C)C)NC(=O)[C@H](CC(C)C)NC(=O)[C@@H](CC(C)C)NC1=O`, the logD was -0.867.
With `CC(C)C[C@@H]1NC(=O)[C@H](C)NC(=O)[C@H](Cc2cscn2)NC(=O)[C@H](CCC(=O)N2CCCC2)NC(=O)[C@H](CC(C)C)NC(=O)[C@H](CC(C)C)NC(=O)[C@H](CC(C)C)NC1=O` the logD was -1.44.
`CC(C)C[C@@H]1NC(=O)[C@H](CC(C)C)NC(=O)[C@H](CC(C)C)NC(=O)[C@H](C(C)C)NC(=O)[C@H](C(C)C)NC(=O)[C@H](C)NC(=O)[C@H](C)NC1=O` gave a logD of -1.28.

Series 5
Species: mouse
Sample: microsomes or S9
Tested at: 2 µM
Time: 0.5 h
The remaining compound of `c1ccc(-c2nnc(-c3cc4ccccc4o3)o2)nc1` is reported as 1.21%.
With `O=S(=O)(NC1CCCC12CCOCC2)c1cccc2ccoc12` (centres unmarked) the remaining compound was 7.27%.
`Cc1cc(OC(Cc2ccc(Cl)cc2)c2ccc(Cl)cc2Cl)ncc1NC(=O)NC(C)(C)C` (centres unmarked) gave a remaining compound of 76.9%.

For quick reference, copied from above (series 2):
Tyrosine-protein kinase ABL1, non-phosphorylated (ABL1, Homo sapiens, UniProt P00519, Q252H) — remaining binding: 88%.
For CAMKK1 (Homo sapiens, UniProt Q8N5S9): remaining binding read 100%.
CDK3 (Homo sapiens, UniProt Q00526) — remaining binding: 100%.
For Cyclin-dependent kinase 4, with cyclin D1 (CDK4, Homo sapiens, UniProt P11802): remaining binding read 75%.
